Published values pooled from the literature.
Each numbered part is a random draw from the data of one study; scales do not carry over between parts.

Series 1 — cell line: HEK-293T/ACE2; tested at: 10 µM; time: 16 h; reference: vehicle; measurement: viability
OCCN1C[C@H](O)[C@@H](O)[C@H](O)[C@H]1CO: 101%
NC(=O)c1cccnc1: 102%
CCn1cc(C(=O)O)c(=O)c2ccc(C)nc21: 98.9%
O=C1O[C@H](CO)[C@@H](O)[C@H](O)[C@H]1O: 103%

Series 2 — method: universal PBM; molecule type: double-stranded DNA, one strand shown; matrix: in vitro; tested at: 600 nM; direction: higher = stronger binding; measurement: E-score
Target: Sal-like protein 4, full length isoform A (SALL4, Homo sapiens, UniProt Q9UJQ4, residues 1-1053)
UniProt Q9UJQ4, sequence (whole entry, looked up): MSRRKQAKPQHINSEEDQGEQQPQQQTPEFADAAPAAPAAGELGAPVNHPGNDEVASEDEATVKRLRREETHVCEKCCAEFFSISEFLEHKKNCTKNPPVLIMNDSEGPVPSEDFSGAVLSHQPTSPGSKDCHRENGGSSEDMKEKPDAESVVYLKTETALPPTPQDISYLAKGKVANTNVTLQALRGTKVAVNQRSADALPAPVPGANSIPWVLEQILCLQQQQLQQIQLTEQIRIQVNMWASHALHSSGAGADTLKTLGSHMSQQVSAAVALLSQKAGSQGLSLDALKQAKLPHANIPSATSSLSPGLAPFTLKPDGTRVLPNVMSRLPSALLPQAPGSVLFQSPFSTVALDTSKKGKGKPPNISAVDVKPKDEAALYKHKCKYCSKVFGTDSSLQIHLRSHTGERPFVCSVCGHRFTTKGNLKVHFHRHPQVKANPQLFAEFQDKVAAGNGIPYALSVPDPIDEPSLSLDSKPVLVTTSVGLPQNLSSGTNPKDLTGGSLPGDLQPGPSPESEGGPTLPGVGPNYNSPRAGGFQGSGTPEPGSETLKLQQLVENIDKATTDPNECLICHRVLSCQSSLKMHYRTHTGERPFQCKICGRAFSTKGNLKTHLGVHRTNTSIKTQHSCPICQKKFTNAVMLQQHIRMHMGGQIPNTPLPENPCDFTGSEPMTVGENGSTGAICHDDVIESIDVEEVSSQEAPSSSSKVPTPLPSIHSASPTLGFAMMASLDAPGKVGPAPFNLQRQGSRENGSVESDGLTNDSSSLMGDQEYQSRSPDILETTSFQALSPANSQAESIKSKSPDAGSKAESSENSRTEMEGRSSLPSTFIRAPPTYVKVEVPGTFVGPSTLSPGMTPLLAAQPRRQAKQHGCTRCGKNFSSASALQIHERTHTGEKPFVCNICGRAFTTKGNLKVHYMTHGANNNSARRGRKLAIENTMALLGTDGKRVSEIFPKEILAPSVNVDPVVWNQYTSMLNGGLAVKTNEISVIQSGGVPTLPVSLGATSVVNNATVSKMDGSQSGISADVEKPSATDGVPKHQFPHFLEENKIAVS
Setting: 8-mer, flanks averaged, mean of replicates
CTAAGCAC: -0.0852
GGGTGACA: -0.271
AAATTATG: 0.359
CGTGGGCC: -0.312
TGTTCCAA: 0.121
CCTCGGGA: -0.291
GAACTCCC: -0.134
ACAGGAGA: 0.0221

Series 3 — read-out: enzyme activity; action: inhibitor; tested at: 20 µM; measurement: inhibition
Target: Replicase polyprotein 1ab, polymerase (rep, Severe acute respiratory syndrome coronavirus 2, UniProt P0DTD1)
CC(=O)O[C@H]1C[C@@]2(C)[C@@H](C[C@@H](O)[C@H]3[C@@]4(C)CC[C@@H](O)[C@@H](C)[C@@H]4CC[C@@]32C)/C1=C(\CCC=C(C)C)C(=O)O: 18.6%
CC[C@]12CCCN3CCc4c(n(c5ccccc45)[C@@](O)(C(=O)OC)C1)[C@@H]32: -0.43%
Cc1ccc2c(c1)c1c(n2CCc2ccc(C)nc2)CCN(C)C1: 15.9%
NC(=O)c1cc[n+](CC2=C(C(=O)O)N3C(=O)[C@@H](NC(=O)[C@@H](c4ccccc4)S(=O)(=O)[O-])[C@H]3SC2)cc1: 1.11%
OCc1ccc(-c2ccc(-c3ccc(CO)s3)o2)s1: -1.1%
O=C(Nc1ncc(SCCN2CCCC2)s1)[C@]1(c2ccc(S(=O)(=O)C3CC3)cc2)C[C@H]1C1CCCCC1: -2.07%
CN(C)CCc1c[nH]c2ccc(Cn3cncn3)cc12: 0.49%
COC(=O)C1=C(C)NC(C)=C(C(=O)OCCN(C)Cc2ccccc2)C1c1cccc([N+](=O)[O-])c1 (stereo not shown): 6.24%
O=C(O)c1ccc(NC(=O)[C@H](Cc2ccc(O)cc2)NC(=O)c2ccccc2)cc1: 1%
CCC(=O)O[C@]1(C(=O)CO)CC[C@H]2[C@@H]3CCC4=CC(=O)CC[C@]4(C)[C@H]3CC[C@@]21C: -0.68%
CCS(=O)(=O)c1ccc2oc(-c3ccc4ccccc4c3)nc2c1: -11.3%
CC(=O)OCC1=C(C(=O)O)N2C(=O)[C@@H](NC(=O)CSC(=NC(C)C)NC(C)C)[C@H]2SC1: 0.84%
C=CC(=O)Nc1cc(Nc2nccc(-c3cn(C)c4ccccc34)n2)c(OC)cc1N(C)CCN(C)C: 15.8%
Oc1ccc([C@@H]2Oc3ccc(O)cc3[C@@H]3CCC[C@@H]32)cc1: -5.09%
COc1ccccc1OCC(O)CO (stereo not shown): 9.67%
C#C[C@]1(O)CC[C@H]2[C@@H]3CCc4cc(OC5CCCC5)ccc4[C@H]3CC[C@@]21C: -6.33%
CCCC(CCC)C(=O)O: 1.81%
CCOC(=O)C1=C(COCCN)NC(C)=C(C(=O)OC)C1c1ccccc1Cl (stereo not shown): -4.98%
NC(=O)c1cccc(N)c1: 3.7%
O=C(O)c1ccc(CN2CCC(CN[C@@H]3C[C@H]3c3ccccc3)CC2)cc1: -2.94%
CO/N=C(\C(=O)N[C@@H]1C(=O)N2C(C(=O)O)=C(CSC(=O)c3ccco3)CS[C@H]12)c1csc(N)n1: 1.88%
CCCCCCC[N+](CC)(CC)CCCCc1ccc(Cl)cc1: -9.15%
N#C/C(=C(/N)Sc1ccc(N)cc1)c1ccccc1C(F)(F)F: -1.2%
COC1=C(OC)C(=O)C(CCCCCCCCCCO)=C(C)C1=O: -5.62%
CSc1ccc2c(c1)C(N1CCN(C)CC1)Cc1ccccc1S2 (stereo not shown): -14.2%

Series 4 — method: RNA Bind-n-Seq; molecule type: RNA; matrix: in vitro; tested at: 365 nM; reference: no-protein control; direction: higher = stronger binding; measurement: RBNS enrichment (R)
Target: RNA binding protein fox-1 homolog 2, RRM domain, GST-SBP tag (RBFOX2, Homo sapiens, UniProt O43251-10, residues 100-194)
Setting: natural RNA segment, single round, ends assumed
Constant ends, left off below: GGGAGUUCUACAGUCCGACGAUC … UGGAAUUCUCGGGUGCCAA
Target sequence (chain): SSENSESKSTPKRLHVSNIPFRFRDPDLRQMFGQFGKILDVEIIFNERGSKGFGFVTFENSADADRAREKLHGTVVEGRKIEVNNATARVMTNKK
GAGAUCAGGAUUCCACUGACGUCCUGGGCAGCCAGUGAAUUUAAUUUUCCAUGAGAAACAACAGAGUUAACCUGUGGCAUUAGGAGACCUACUUCAUGUGGACCCUUUUU: 0.319
AAACACCUUUUUCUAAACACUUUCUUAUAAAAUGCAUUUGGAAACUAGACCUUUGCUACCACUGUCUCUGGGUUUUUGUAUCAGUCCCAACUUCUCAGGCUGUCUUGCCC: 0.288
GCUGUGGGGUCCAAAACCCUAAGGGCUCCAAUCCCACCCACAUUCUUUCUCGGUCUUUGUCUCUCUUUCUUCCUUUCCUUUCUAUUUCCCCCAGGGUCUCCUGUUAACCA: 0.812
AGUAGCAACAACAAGAUCACAUGGGUGGGGACCCUAGGUCCGGUGGCCAGCUUAUGGCAGGAGCAAAGUCAGUCCCCCUUUCAGAGCCUCAGGAAGCUUGGAACACCUCA: 0.387
CUACCUAGUACGUCAUGUUGUACUAGGUACAUGAUGCUGGUCAGCCAUCCUUAAUCCAAAAUUUUGAGUCAAGUCUUAUAAGUGGAAAAUUCCAGUGAACAUUUAUUUUG: 0.577
GGCAGUACACAUUGUUAACAAUCGUGUAAUUAUAAUAAAUAUGUCUACCUACUCCUUGAACCAUGAAUUUUGCACACCUGAGGUUUAAUUUUCACCUAUUGAACUUUAUU: 0.379
UAAAUUCUUAUUGGCCAAAUGCCUGUUUUGAUGAGUUGAUUUAUAAAGAUUUUUGUUAAGCUCAGGAUUUUAAAUUACACAGUUCACAAACAGUAAAGGCCAUGUGAAGA: 0.475
AUCUCAAAAAAAAAGAAAAGAAGGUCCAGCUUUUGGAUUCAAUGAGUGGGAAAUACAUUGUGCCUUUCUCUAGAUGUGAUACGUUAUACCAAAAUCUUUGUAGUGUGCAG: 0.689

Series 5 — method: protein binding microarray; molecule type: double-stranded DNA, one strand shown; matrix: in vitro; tested at: not given; reference: not given; direction: higher = stronger binding; measurement: E-score
Target: Histone acetyltransferase KAT6A, winged helix 1, GST fusion (KAT6A, Homo sapiens, UniProt Q92794, residues 1-85)
Setting: 8-mer, flanks averaged, mean of 2 arrays, mostly near background
Construct (chain): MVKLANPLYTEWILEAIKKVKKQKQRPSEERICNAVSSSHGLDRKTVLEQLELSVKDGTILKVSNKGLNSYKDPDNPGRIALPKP
GGGTCCAC: 0.0693
CAGACTAA: -0.147
GGCTCAGA: 0.0604
ACTACCTG: -0.127
GTTAGTAA: -0.11
AGAAATCC: 0.0144
CCTTTTGC: -0.0221
CCAATAGC: -0.0755

Other studies, line by line — read-out: enzyme activity
Target: Replicase polyprotein 1ab, 3C-like proteinase (rep, Middle East respiratory syndrome-related coronavirus, UniProt K9N7C7)
C[n+]1c2cc(N)ccc2cc2ccc(N)cc21.Nc1ccc2cc3ccc(N)cc3nc2c1  IC50 (inhibitor; MERS-CoV): 10 µM
CC(C)N(CCC(=O)c1ccc2ccccc2c1)Cc1ccccc1  inhibition (10 µM): 61.5%

Repeated from above (other studies, line by line):
C[n+]1c2cc(N)ccc2cc2ccc(N)cc21.Nc1ccc2cc3ccc(N)cc3nc2c1  IC50 (inhibitor; MERS-CoV): 10 µM
CC(C)N(CCC(=O)c1ccc2ccccc2c1)Cc1ccccc1  inhibition (10 µM): 61.5%
